Measurements pooled from the literature.
Compare with care: the assays were run in different laboratories.

For `FC(F)(F)c1ccc(CNc2ccc(Cc3c[nH]c4ncc(Cl)cc34)cn2)cn1`, “adverse events, all grades” read 13% (refers to: periorbital oedema; patients with advanced solid tumours; oral, dose not given, phase Ib, related to compound).
`CC[C@H](C)[C@H](NC(=O)[C@H](Cc1ccccc1)NC(=O)[C@H](CCC(=O)O)NC(=O)[C@H](CCCCNC(=O)COCCOCCNC(=O)COCCOCCNC(=O)CC[C@H](NC(=O)CCCCCCCCCCCCCCCCC(=O)O)C(=O)O)NC(=O)[C@H](C)NC(=O)[C@H](C)NC(=O)[C@H](CCC(N)=O)NC(=O)CNC(=O)[C@H](CCC(=O)O)NC(=O)[C@H](CC(C)C)NC(=O)[C@H](Cc1ccc(O)cc1)NC(=O)[C@H](CO)NC(=O)[C@H](CO)NC(=O)[C@@H](NC(=O)[C@H](CC(=O)O)NC(=O)[C@H](CO)NC(=O)[C@@H](NC(=O)[C@H](Cc1ccccc1)NC(=O)[C@@H](NC(=O)CNC(=O)[C@H](CCC(=O)O)NC(=O)C(C)(C)NC(=O)[C@@H](N)Cc1cnc[nH]1)[C@@H](C)O)[C@@H](C)O)C(C)C)C(=O)N[C@@H](C)C(=O)N[C@@H](Cc1c[nH]c2ccccc12)C(=O)N[C@@H](CC(C)C)C(=O)N[C@H](C(=O)N[C@@H](CCCNC(=N)N)C(=O)NCC(=O)N[C@@H](CCCNC(=N)N)C(=O)NCC(=O)O)C(C)C` — result for “adverse event incidence”: 40% (refers to: Nausea; type 2 diabetes patients; dose not given; relative to: subjects).
Under “adverse event incidence”, `Cc1ccc(Sc2ccccc2N2CCNCC2)c(C)c1` is recorded as 0% (TEAE abdominal distension; healthy adult men; oral, 20 mg single dose, 10 days).
`CC(=O)O[C@H]1C(=O)[C@@]2(C)[C@H]([C@H](OC(=O)c3ccccc3)[C@]3(O)C[C@H](OC(=O)[C@H](O)[C@@H](NC(=O)c4ccccc4)c4ccccc4)C(C)=C1C3(C)C)[C@]1(OC(C)=O)CO[C@@H]1C[C@@H]2O` — result for “adverse events, any”: 100% (patients with advanced solid tumours; intravenous, dose not given, phase Ib, all relationships).
Under “adverse event abdominal pain”, `Cc1cc(Nc2ccc(S(F)(F)(F)(F)F)cc2)n2nc(C(C)(F)F)nc2n1` is recorded as 20% (Plasmodium vivax malaria patients; oral, 400 mg).
`Cc1c(Cl)c(C)[n+]([O-])c(Cl)c1-c1noc(-c2cc(O)c(O)c([N+](=O)[O-])c2)n1`: “adverse drug reaction incidence” 0% (refers to: Bloating; healthy Caucasian subjects; oral, 50 mg, 20 days).
`O=C1CCc2ccc(OCCCCN3CCN(c4cccc(Cl)c4Cl)CC3)cc2N1`: “adverse event incidence” 21% (refers to: Sedation; patients, CYP2D6 ultrarapid metabolizers; dose not given, long-acting oral or depot).
`Cc1c(C(=O)O)ccc2c3n(nc12)[C@@H]1[C@H](C3)N(CC2CC2)[C@@]2(C(=O)Nc3cc(Cl)ccc32)[C@H]1c1cccc(Cl)c1F` — result for “adverse event incidence”: 24% (phase Ia trial, refers to: Alopecia; cancer patients; oral, dose not given).
